Experimental data pooled from the literature.
Every numbered part comes from another study and shows a few of its results, in no order. Changes are numbered by the printed parent chain.

Set 1 — method: protein-binding microarray; molecule type: double-stranded DNA, one strand shown; matrix: in vitro; tested at: 2200 nM top; setting: 60-bp whole probe; together with: salmon DNA 0.4 mg/ml; reference: random background probes; reading: higher = stronger binding; constant ends, left off below: GCCTAGCAC … GTCTTGATTCGCTTGACGCTGCTG
Target: Interferon regulatory factor 7, full length, phosphomimetic (IRF7, Homo sapiens, UniProt Q92985, residues 1-503, S471D/S472D/S475D/S476D/S477D/S483D/S484D/S487D)
Residues (chain): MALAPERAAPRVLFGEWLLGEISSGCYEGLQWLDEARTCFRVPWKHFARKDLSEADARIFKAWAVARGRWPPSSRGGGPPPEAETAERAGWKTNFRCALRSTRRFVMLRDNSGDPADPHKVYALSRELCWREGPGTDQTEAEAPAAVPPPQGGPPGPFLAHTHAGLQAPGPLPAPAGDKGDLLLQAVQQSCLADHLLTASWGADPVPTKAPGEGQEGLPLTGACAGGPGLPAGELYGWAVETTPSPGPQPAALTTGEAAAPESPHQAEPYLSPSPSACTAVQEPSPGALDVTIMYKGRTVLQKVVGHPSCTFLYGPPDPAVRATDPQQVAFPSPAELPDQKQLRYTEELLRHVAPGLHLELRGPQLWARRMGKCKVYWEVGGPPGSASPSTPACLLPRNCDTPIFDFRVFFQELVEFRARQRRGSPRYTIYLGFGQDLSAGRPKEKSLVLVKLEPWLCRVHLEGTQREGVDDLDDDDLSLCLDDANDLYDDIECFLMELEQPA
Strand | fitted relative affinity
TACGAACTGAGTCTCGAGACGTGCTAG | 0.0932 z-score
TTAGGTTTCCGTTTCGGTTAGTGCTAG | 8.38 z-score
TTAGTTCTCGGTTTCGGTTAGTGCTAG | 7.85 z-score
AAGTTTATACCTTAGGTTTTGTGCTAG | 0.249 z-score
TTAGATTTCGGGTATCGAGTAGTGCTA | 2.54 z-score
AGGGTCATCCATCTGAACCAGTGCTAG | -0.472 z-score
TACGGACTGGACTTTCGGGACGTGCTA | 2.24 z-score
TCATTTTTACTTCGGGTACTGTGCTAG | 2.34 z-score
GACGGTTCACTTTTCCTGACGTGCTAG | 1.72 z-score
CGTATCTTCATTGTCATGTAGTGCTAG | 1.86 z-score
TTAGATATAGGGTATCGATTAGTGCTA | -0.497 z-score
TTAGGTATGGACACTGGGTTAGTGCTA | -0.286 z-score
GAAGGTCTCGGTCTCGGGACGTGCTAG | -0.0737 z-score

Set 2 — method: RNA Bind-n-Seq; molecule type: RNA; matrix: in vitro; tested at: 1 µM; setting: whole 134-nt RNA, ends assumed; together with: 150 mM KCl; reference: input library; reading: higher = stronger binding
Target: Ras GTPase-activating protein-binding protein 1, C-terminal RGG region (G3BP1, Homo sapiens, UniProt Q13283)
Chain of UniProt Q13283 (whole entry, looked up): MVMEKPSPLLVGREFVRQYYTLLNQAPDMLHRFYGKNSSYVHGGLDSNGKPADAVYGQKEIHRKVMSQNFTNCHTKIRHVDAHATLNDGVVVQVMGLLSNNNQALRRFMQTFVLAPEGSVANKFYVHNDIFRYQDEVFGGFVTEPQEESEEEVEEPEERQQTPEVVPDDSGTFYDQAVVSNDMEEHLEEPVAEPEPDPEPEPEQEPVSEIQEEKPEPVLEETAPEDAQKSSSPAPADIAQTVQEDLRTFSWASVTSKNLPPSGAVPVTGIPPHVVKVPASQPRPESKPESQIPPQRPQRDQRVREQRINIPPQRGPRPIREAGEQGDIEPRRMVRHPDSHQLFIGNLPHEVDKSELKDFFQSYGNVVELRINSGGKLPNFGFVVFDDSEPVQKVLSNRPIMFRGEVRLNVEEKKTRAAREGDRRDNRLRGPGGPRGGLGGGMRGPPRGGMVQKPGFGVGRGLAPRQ
Constant ends, left off below: GGGAGUUCUACAGUCCGACGAUC … UGGAAUUCUCGGGUGUCAAGG
Strand | log2 enrichment
CCUCAAGUCCUGUGCUACACAUCGUAUGUACCGAAUCGGUGGGGUGGGUGGGAAAGUAUUAUGUUACGCCGUUCGGAUCUGCACUUCCAG | 0.99
UGGUGACCUACCUGGACGUCCGGAGCUGCCUUGGACACCUAGGCUACCUGGGCUACCCCACCCUCUGUGAGCAGGACCAGGCCCAUGCCA | -0.0644
ACCAUGCAGGUGGGCAUCUUUGGGAAGUGGGGCAAGGGGGGGAUAGGGAGGGGGGUAACCCUUUGGGAACAGGUGGUCCCAGGUCGUUUC | 2.39
UGGCCCUGGUGGCAUGCGGGGAGGAAGAGAUGGCCUCAUGGAUCGUGGUGGUCCCGGUGGAAUGUUCAGAGGUGGCCGUGGUGGAGACAG | 1.86
AGUCCUGUGCUACACAUCGUAUGUACCGAAUCAAAUUUAAACCCCCCCAAACCCAAAAAAGUAUUAUGUUACGCCGUUCGGAUCUGCACU | -0.842
UGGAGAGGGAAGUCCCAAUGGUGCUAGAAUGGUGCUGCAGUGGCAGAAGACGGCUCACAAGUGAGGUCUGGAAGAACAACAGGGAAGACA | -0.631
CCUCAAGUCCUGUGCUACACAUCGUAUGUACCGAAUCGGAGGUUUUUGGUGGAAAGUAUUAUGUUACGCCGUUCGGAUCUGCACUUCCAG | -0.702
ACCAUGCAGGUGGGCAUCUUUGGGAAGUGGGGCAAGGGGGGGAUAGGGAGGGGGGUAACACUUUGGGGACAGGUGGUCCCAGGUCGUUUC | 2.24

Set 3 — method: Sort-seq; measured: YFP reporter; matrix: E. coli; setting: PhoQ-PhoP variant library; together with: 10 µM Mg2+; reference: high Mg2+ state; reading: higher = stronger signaling
Substance: PhoQ, residues 284 288 289 292 302 303 SACGEM
target | fold induction
PhoP, residues 12 14 15 18 19 NYFRM (Escherichia coli, UniProt P23836) | 13.8
PhoP, residues 12 14 15 18 19 QYFSL (Escherichia coli, UniProt P23836) | 15.5
PhoP, residues 12 14 15 18 19 TQALL (Escherichia coli, UniProt P23836) | 2

Set 4 — target: CCNB1, cyclin fold, Cln2 fusion (human); method: yeast growth competition, sequencing; matrix: yeast; setting: strong parent motif; reference: not given; reading: higher = stronger binding
Parent: INSM1 docking peptide (human); PKAIRKLHFEDEV
Change | normalised enrichment score
H8I | 3.48
A3K | 0.858
D11M | 0.874
I4P | 0.568
K2Y | 3.22
K6Y | 0.726
I4V | 3.13
E10C | 1.58
L7A | 0.161
E12Y | 1.06
F9L | 0.536
L7P | -0.199
F9M | 0.485

A few entries again (set 4):
Change | normalised enrichment score
L7A | 0.161
D11M | 0.874
E10C | 1.58
I4P | 0.568
K6Y | 0.726
I4V | 3.13
